Measurements of several laboratories.
Compare with care: the assays were run in different laboratories. Numbers after ± are the reported error.

SMILES | cell line | assay | setting | scale | measurement | result
CSCC[C@H](NC(=O)[C@H](CC(C)C)NC(=O)[C@H](Cc1c[nH]cn1)NC(=O)CNC(=O)[C@@H](NC(=O)[C@H](C)NC(=O)[C@H](Cc1c[nH]c2ccccc12)NC(=O)[C@H](CCC(N)=O)NC(=O)CCCCCNC(=O)CCN(CCNC(=O)c1ccc(F)cc1)CCC(=O)NCCCC[C@@H]1NC(=O)[C@@H](Cc2ccc(O)cc2)NC(=O)[C@H](CC(=O)O)NC(=O)CNC(=O)[C@H](CCCNC(=N)N)NC1=O)C(C)C)C(N)=O [fluorine-18 labelled] | PC-3 | – | 15 min, 37 °C | baseline: added radioactivity | cellular uptake | 3.9 ± 0.16%
COC(=O)C1=CO[C@@H](OC(C)=O)[C@@H]2C(Cn3cc(CN(C)Cc4ccccc4)nn3)=CC[C@H]12 | SK-N-SH | neuroprotection, MTT | 0.6 µM, 24 h, with: 250 µM H2O2 | – | viability | 51.2 ± 0.8%
[Ga+3].[O-]c1ccc(Br)c2cccnc12.[O-]c1ccc(Br)c2cccnc12.[O-]c1ccc(Br)c2cccnc12 | HCC1806 | cell growth or viability, SRB | 10 µM, 48 h | – | inhibition | 91.4%
COC(=O)[C@H](CC(C)C)NC(=O)[C@@H]1CCCN1C(=O)[C@@H](NC(=O)[C@H](CCC(=O)C=[N+]=[N-])NC(=O)OCc1ccccc1)C(C)C | wild-type mouse medium spiny neurons | TUNEL | 50 µM, 24 h after NMDA, baseline subtracted, with: NMDA 500 µM for 10 min | – | apoptotic cells | 9.8 ± 1.4%
Cc1cc(C)c(N2CCN(c3c(C)cc(C)cc3C)C2=[Se])c(C)c1.[Cl][Ag] | LoVo MDR | MTT | – | baseline: LoVo MDR over LoVo | resistance factor | 0.4
Cc1nc(C)c(C=[N+]([O-])C(C)(C)C)nc1C | rat primary midbrain neurons | MTT | 100 µM, with: MPP+ | – | cell survival increase | 16.6%
COC(=O)C1=CO[C@@H](OC(C)=O)[C@@H]2C(Cn3cc(CON4C(=O)c5ccccc5C4=O)nn3)=CC[C@H]12 | SK-N-SH | neuroprotection, MTT | 0.6 µM, 24 h, with: 250 µM H2O2 | – | viability | 60.1 ± 0.1%
CC=C(C)C(=O)OC1C2C3(C)CCC(OC4CC(OC)C(OC5OC(C)C(O)C(OC)C5O)C(C)O4)CC3CCC23OC32CCC(C(C)=O)C2(C)C1OC(C)=O (centres unmarked) | MDA435/LCC6-MDR1 | cell growth, MDR reversal, SRB | 10 µM, with: doxorubicin | baseline: doxorubicin alone over combination | fold reversal of IC50 | 4
COC(=O)C1=CO[C@@H](OC(C)=O)[C@@H]2C(Cn3cc(CCN4C(=O)c5ccccc5C4=O)nn3)=CC[C@H]12 | SK-N-SH | neuroprotection, MTT | 0.15 µM, 24 h, with: 250 µM H2O2 | – | viability | 54.9 ± 2.7%
CCOc1c(C(C)(C)O)sc2cnc(Nc3ccc(N4CCC(N5CC6(COC6)C5)CC4)cc3OC)nc12 | human atrial cardiomyocytes | confocal line scan | 3 and 10 µM | baseline: vehicle | SR Ca leak | decreased
c1ccc(Nc2c3c(nc4ccccc24)CCCC3)cc1 | SH-SY5Y | MTT | 50 µM, 1 h pretreatment, 10% FBS, with: H2O2 | – | viability | 60.4 ± 2.73%
CC(C)CC(O)(CC(C)C)c1cn(C(=O)N2CCCC2)nn1 | mouse T-cells | N-terminal labeled proteins, N-terminal enrichment proteomics, refers to: NIBAN | 1 nM, 6 h | baseline: DMSO | SILAC ratio | 4.22 ± 0.28
COC(=O)C1=CO[C@@H](OC(C)=O)[C@@H]2C(Cn3cc(COCc4ccccc4)nn3)=CC[C@H]12 | SK-N-SH | neuroprotection, MTT | 0.15 µM, 24 h, with: 250 µM H2O2 | – | viability | 73 ± 0.2%
CCCc1cc(OC)c2c(c1OC)OCO2 | SK-OV-3 | cell growth or viability, MTT | 72 h | – | GI50 | > 250 µM
